Experimental data pooled from the literature.
Parts stem from different laboratories: compare values within a part only. Values joined by “and” are separate records of one study, mostly repeats; a detail may differ.
UniProt P08631, sequence (whole entry, looked up): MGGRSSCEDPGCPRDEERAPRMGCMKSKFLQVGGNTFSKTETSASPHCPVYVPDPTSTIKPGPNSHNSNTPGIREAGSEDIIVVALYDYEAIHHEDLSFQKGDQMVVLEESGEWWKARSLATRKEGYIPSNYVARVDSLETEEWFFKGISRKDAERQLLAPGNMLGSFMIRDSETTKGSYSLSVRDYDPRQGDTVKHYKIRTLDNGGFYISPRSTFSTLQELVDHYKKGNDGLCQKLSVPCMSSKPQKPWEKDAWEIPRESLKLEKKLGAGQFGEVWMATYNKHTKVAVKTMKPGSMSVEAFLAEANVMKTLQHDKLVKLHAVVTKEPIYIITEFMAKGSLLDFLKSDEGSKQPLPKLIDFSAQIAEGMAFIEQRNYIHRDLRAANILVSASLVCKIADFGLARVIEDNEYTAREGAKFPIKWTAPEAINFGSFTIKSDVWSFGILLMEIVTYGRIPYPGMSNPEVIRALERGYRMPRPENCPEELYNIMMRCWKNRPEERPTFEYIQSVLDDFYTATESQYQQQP
UniProt Q16659, sequence (whole entry, looked up): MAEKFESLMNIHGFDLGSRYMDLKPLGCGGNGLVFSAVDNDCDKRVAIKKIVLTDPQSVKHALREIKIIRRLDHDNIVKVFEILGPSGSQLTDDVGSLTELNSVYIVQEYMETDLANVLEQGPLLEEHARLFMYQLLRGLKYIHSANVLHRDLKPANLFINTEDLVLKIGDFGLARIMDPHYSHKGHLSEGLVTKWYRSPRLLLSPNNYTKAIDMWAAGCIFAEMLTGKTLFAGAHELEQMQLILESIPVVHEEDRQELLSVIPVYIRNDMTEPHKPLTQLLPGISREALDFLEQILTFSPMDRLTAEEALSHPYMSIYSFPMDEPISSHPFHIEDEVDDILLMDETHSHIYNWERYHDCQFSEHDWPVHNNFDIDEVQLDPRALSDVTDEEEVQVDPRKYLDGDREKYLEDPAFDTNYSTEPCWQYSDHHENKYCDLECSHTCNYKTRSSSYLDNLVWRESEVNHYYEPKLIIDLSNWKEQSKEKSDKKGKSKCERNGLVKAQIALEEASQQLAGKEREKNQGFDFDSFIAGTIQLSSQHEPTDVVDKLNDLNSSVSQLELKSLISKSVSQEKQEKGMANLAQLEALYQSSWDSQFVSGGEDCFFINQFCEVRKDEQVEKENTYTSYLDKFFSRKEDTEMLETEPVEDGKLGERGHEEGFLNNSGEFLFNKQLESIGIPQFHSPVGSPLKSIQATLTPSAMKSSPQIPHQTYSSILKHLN
UniProt P52333, sequence (whole entry, looked up): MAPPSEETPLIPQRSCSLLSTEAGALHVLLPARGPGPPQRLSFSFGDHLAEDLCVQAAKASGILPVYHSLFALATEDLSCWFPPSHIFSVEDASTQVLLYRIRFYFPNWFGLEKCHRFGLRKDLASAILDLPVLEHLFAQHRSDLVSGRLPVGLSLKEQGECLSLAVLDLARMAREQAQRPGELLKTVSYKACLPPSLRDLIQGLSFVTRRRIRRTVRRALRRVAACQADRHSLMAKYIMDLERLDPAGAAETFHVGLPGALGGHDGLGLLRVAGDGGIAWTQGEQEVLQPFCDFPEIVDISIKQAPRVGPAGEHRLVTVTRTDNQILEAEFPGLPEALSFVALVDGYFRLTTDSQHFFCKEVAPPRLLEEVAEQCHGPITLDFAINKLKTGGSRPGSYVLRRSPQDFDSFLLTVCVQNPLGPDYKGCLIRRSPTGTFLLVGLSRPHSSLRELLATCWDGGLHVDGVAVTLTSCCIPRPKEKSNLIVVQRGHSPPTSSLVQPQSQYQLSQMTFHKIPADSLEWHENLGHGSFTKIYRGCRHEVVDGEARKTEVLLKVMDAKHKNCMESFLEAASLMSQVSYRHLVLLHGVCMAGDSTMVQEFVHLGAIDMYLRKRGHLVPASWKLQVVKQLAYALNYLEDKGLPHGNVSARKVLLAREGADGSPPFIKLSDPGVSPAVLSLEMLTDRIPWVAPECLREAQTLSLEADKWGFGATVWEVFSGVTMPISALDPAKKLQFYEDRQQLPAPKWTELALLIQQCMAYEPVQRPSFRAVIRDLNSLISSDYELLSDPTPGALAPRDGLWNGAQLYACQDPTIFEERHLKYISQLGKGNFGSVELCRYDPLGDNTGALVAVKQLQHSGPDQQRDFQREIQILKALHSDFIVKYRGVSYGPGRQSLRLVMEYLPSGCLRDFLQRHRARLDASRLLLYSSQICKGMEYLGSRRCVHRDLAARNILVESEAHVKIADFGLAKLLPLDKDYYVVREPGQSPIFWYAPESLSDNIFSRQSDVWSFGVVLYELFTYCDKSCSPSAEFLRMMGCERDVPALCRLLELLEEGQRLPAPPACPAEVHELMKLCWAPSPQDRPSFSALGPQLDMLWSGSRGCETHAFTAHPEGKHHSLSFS

Set 1 — effect on: cell-free assay; technique: competition with immobilised ligand; tested at: 1 µM
Structure (SMILES): O=C1NC(c2ccccn2)Sc2ccccc21 (centres unmarked)
| target | remaining binding |
| --- | --- |
| FLT3 (Homo sapiens, UniProt P36888, R834Q) | 81% |
| MAPK6 (Homo sapiens, UniProt Q16659) | 72% |
| MAPK3 (Homo sapiens, UniProt P27361) | 74% |
| TEK (Homo sapiens, UniProt Q02763) | 100% |
| ANKK1 (Homo sapiens, UniProt Q8NFD2) | 77% |
| MAP3K5 (Homo sapiens, UniProt Q99683) | 72% |
| CHEK1 (Homo sapiens, UniProt O14757) | 88% |

Set 2 — effect on: enzyme activity; mode: inhibitor; tested at: 0.5 µM; reference: control
Target: cGMP-dependent protein kinase 1 (PRKG1, Homo sapiens, UniProt Q13976)
Residues (Q13976 1-671): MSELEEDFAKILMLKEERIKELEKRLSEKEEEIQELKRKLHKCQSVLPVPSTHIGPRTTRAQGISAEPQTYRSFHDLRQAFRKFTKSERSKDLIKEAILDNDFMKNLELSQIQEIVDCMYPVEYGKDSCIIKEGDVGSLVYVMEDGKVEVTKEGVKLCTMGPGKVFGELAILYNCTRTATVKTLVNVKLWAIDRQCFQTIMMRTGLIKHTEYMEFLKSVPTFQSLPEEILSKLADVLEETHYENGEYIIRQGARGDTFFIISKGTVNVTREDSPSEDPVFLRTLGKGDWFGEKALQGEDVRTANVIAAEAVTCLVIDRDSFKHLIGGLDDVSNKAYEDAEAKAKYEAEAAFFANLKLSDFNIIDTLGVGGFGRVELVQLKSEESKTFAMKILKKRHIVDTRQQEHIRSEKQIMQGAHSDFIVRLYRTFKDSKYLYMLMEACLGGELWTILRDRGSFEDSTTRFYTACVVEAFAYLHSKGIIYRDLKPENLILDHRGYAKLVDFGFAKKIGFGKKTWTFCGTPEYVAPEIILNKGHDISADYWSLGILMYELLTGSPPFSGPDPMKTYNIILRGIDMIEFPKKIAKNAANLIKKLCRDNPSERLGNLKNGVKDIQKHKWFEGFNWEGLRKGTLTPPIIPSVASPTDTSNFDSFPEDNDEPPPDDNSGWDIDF
| SMILES | remaining activity |
| --- | --- |
| O=C1NC(=O)C(c2cn(CCCO)c3ncccc23)=C1c1cnccn1 | 131% |
| CN(C)c1ccc(C=C2C(=O)Nc3ccccc32)cc1 | 99.7% |
| N#CC(C#N)=C(N)/C(C#N)=C/c1ccc(O)cc1 | 91.3% |
| COc1ccc(CNC(=O)Nc2ncc([N+](=O)[O-])s2)cc1 | 95.9% |
| Cc1ccc(NC(=O)c2ccc(CN3CCN(C)CC3)cc2)cc1Nc1nc(-c2cccnc2)cs1 | 77.6% |
| COc1ccc(OC)c2c(=S)c3ccccc3[nH]c12 | 101% |
| O=C1NC(=O)C(c2cn(CCCn3ccnc3)c3ccccc23)=C1Nc1ccccc1 | 89.3% |
| COc1cc2ncnc(Nc3ccc(Oc4ccccc4)cc3)c2cc1OC | 92.5% |
| Cn1c2ccccc2c2c3c(c4c5ccccc5n(CCC#N)c4c21)CNC3=O | 80.2% |
| Nc1ncnc2n[nH]c(Nc3ccc(F)cc3)c12 | 95.7% |
| Cn1sc(=O)n(Cc2ccccc2)c1=O | 95.9% |
| O=c1c2ccccc2[nH]c(=S)n1CCN1CCC(=C(c2ccc(F)cc2)c2ccc(F)cc2)CC1 | 102% |
| COc1cc2nccc(Oc3ccc(NC(=S)NC(=O)c4ccccc4C)cc3)c2cc1OC | 91.6% |
| Nc1[nH]nc2nc3ccccc3nc12 | 97.7% |
| Cc1ccc(Nc2nccc(N(C)c3ccc4c(C)n(C)nc4c3)n2)cc1S(N)(=O)=O | 95.1% |
| OCC(O)CCON=C1C(c2c(O)[nH]c3ccccc23)=Nc2ccccc21 (centres unmarked) | 45.1% |
| CNC(=O)c1cc(Oc2ccc(NC(=O)Nc3ccc(Cl)c(C(F)(F)F)c3)cc2)ccn1 | 88.6% |

Set 3 — mode: inhibitor; tested at: concentration not given; notes: average; added: without ssDNA
Target: DNA polymerase theta, helicase domain (POLQ, Homo sapiens, UniProt O75417)
UniProt O75417, sequence (whole entry, looked up): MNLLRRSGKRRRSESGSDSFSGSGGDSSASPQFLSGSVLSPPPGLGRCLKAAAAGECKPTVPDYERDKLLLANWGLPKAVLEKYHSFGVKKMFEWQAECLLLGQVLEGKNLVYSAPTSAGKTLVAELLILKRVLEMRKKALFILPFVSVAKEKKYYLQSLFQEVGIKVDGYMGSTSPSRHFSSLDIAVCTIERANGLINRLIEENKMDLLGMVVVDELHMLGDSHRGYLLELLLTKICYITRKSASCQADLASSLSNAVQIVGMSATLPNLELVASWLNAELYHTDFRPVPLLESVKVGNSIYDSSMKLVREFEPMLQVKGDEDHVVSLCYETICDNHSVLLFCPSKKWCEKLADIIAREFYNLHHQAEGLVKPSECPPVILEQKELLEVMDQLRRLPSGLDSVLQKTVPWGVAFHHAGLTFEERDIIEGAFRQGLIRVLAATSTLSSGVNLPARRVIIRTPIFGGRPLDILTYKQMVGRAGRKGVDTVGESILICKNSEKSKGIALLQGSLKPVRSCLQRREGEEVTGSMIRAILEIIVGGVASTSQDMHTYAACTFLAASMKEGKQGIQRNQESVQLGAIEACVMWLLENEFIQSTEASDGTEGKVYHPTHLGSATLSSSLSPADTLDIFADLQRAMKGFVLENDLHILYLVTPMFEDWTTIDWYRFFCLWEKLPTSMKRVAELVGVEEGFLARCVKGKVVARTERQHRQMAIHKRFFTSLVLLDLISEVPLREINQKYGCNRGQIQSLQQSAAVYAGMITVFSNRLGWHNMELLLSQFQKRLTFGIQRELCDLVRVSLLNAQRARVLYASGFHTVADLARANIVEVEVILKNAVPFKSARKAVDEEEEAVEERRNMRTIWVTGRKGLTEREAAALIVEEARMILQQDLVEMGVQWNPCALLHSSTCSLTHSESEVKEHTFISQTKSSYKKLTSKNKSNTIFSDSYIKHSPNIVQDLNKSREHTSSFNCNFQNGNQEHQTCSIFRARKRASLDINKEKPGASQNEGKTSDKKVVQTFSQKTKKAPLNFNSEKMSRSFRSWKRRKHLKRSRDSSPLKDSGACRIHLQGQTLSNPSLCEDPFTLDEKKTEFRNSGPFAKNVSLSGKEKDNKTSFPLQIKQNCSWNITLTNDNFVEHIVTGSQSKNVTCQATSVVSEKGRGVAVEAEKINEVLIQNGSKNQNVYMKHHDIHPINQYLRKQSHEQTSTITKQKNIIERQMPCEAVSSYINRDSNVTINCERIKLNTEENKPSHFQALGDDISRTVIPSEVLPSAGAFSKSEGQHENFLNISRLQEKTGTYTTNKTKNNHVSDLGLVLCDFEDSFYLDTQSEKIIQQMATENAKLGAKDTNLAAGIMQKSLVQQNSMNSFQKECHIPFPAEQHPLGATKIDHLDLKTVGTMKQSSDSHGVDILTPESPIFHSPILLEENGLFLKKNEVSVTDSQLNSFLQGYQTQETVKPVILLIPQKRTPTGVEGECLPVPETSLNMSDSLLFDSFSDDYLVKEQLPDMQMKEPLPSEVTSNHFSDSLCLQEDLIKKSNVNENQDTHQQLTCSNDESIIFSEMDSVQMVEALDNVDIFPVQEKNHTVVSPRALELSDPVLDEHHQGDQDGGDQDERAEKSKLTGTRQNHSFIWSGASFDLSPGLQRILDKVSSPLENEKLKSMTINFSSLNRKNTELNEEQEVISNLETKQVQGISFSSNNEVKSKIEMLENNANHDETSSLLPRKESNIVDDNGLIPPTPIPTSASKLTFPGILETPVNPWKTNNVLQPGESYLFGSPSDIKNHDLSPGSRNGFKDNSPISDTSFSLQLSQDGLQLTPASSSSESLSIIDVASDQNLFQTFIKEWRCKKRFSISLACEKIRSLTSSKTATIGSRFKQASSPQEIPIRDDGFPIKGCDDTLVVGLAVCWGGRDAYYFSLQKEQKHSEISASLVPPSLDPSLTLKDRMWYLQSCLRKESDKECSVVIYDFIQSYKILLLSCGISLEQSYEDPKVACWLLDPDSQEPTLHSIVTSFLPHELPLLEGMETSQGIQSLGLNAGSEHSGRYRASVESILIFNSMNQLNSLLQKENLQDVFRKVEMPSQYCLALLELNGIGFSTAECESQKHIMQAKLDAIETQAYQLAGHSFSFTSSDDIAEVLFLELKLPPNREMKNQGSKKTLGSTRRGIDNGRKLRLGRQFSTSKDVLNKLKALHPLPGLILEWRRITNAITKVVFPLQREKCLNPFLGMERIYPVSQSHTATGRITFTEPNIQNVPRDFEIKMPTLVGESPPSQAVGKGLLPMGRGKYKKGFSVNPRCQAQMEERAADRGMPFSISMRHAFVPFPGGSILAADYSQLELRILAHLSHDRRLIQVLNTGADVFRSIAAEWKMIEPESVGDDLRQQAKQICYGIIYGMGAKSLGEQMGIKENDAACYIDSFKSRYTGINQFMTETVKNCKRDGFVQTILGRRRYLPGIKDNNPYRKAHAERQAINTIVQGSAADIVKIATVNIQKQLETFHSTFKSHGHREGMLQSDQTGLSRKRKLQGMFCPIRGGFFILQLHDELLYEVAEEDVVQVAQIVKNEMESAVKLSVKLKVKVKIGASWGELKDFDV
| SMILES | remaining activity [%] |
| --- | --- |
| Cc1ccc(C(=O)Nc2ccccc2C(=O)O)cc1S(=O)(=O)N1CCCCCC1 | 66.7 |
| COc1ccc(C(=O)Nc2noc3ccccc23)cc1 | 63.4 |
| Cc1ccc(-c2n[nH]c3c2C(c2cccc(O)c2)N(c2ccc(C(=O)O)cc2)C3=O)cc1 (centres unmarked) | 61 |
| O=C(Nc1noc2ccccc12)c1ccc(F)cc1 | 50.7 |
| O=C(O)C1=CC(=C(c2ccc(O)c(C(=O)O)c2)c2ccc(O)c(C(=O)O)c2)C=CC1=O | 6.31 |
| Cc1ccc(-c2n[nH]c3c2C(c2ccccc2Cl)N(c2ccc(C(=O)O)cc2)C3=O)cc1 (centres unmarked) | 80.3 |
| Cc1ccc(C2C=C(c3ccccc3)N=C3N=C(NS(C)(=O)=O)NN32)cc1 (centres unmarked) | 89.8 |

Set 4
SMILES: Cc1ccc(NC(=O)c2ccnc(C(F)(F)F)c2)cc1-c1cc(OCCO)nc(N2CCOCC2)c1
| target | test | setting | remaining binding [%] |
| --- | --- | --- | --- |
| MAP3K3 (Homo sapiens, UniProt Q99759) | binding, competition with immobilised ligand | 1 µM | 100 |
| Tyrosine-protein kinase JAK3, JH1 (JAK3, Homo sapiens, UniProt P52333) | cell-free assay, competition with immobilised ligand | 1 µM | 72 |
| MAP3K2 (Homo sapiens, UniProt Q9Y2U5) | binding, competition with immobilised ligand | 1 µM | 75 |
| HCK (Homo sapiens, UniProt P08631) | binding, competition with immobilised ligand | 1 µM | 95 |
| FGFR3 (Homo sapiens, UniProt P22607, G697C) | binding | 1 µM | 72 |
| PDGFRA (Homo sapiens, UniProt P16234) | DiscoverX cell-free binding | 1000 nM | 72 |
| DAPK2 (Homo sapiens, UniProt Q9UIK4) | binding | 1 µM | 100 |
| MAP3K12 (Homo sapiens, UniProt Q12852) | binding | 1 µM | 100 |
| FLT4 (Homo sapiens, UniProt P35916) | binding, competition with immobilised ligand | 1 µM | 79 |

Mixed results
| Structure (SMILES) | test system | setting | quantity | value |
| --- | --- | --- | --- | --- |
| CN(N=O)C(=O)N[C@@H]1[C@@H](O)[C@H](O)[C@@H](CO)O[C@@H]1O | mice, STZ diabetic neuropathy | dose not given, 14 days after STZ | blood glucose | 527 mg/dL and 590 mg/dL and 408 mg/dL and 534 mg/dL and 455 mg/dL |

For quick reference, copied from above (set 1):
| target | remaining binding |
| --- | --- |
| TEK (Homo sapiens, UniProt Q02763) | 100% |
| ANKK1 (Homo sapiens, UniProt Q8NFD2) | 77% |
| MAP3K5 (Homo sapiens, UniProt Q99683) | 72% |
| CHEK1 (Homo sapiens, UniProt O14757) | 88% |
